# Results from different studies.
# Every numbered part comes from another study and shows a few of its results, in no order. Changes are numbered by the printed parent chain.

# Block 1
# Molecule: PhoQ, residues 284 288 289 292 302 303 QWGLFV
# Method: Sort-seq
# Item: YFP reporter
# Sample: E. coli
# Notes: PhoQ-PhoP variant library
# With: 10 µM Mg2+
# Baseline: high Mg2+ state
# Direction: higher = stronger signaling
target,fold induction
"PhoP, residues 12 14 15 18 19 AYFRS (Escherichia coli, UniProt P23836)",3.16
"PhoP, residues 12 14 15 18 19 SFCSL (Escherichia coli, UniProt P23836)",15.9
"PhoP, residues 12 14 15 18 19 HHYTI (Escherichia coli, UniProt P23836)",8.66

# Block 2
# Target: Centromere-binding protein 1, full length, His-tagged (CBF1, Saccharomyces cerevisiae, UniProt P17106, residues 1-351)
# Chain of UniProt P17106 (whole entry, looked up): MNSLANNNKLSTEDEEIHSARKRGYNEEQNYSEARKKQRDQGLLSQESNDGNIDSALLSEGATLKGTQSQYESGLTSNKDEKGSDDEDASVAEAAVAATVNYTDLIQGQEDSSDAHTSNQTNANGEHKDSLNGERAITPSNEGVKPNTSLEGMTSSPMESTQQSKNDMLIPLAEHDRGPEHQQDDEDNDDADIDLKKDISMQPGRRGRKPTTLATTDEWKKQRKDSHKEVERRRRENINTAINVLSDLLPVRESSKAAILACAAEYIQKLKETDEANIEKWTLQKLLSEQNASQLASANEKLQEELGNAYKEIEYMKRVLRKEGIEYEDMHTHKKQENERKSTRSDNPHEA
# Method: competition protein-binding microarray
# Molecule type: double-stranded DNA, one strand shown
# Sample: in vitro
# Concentration: 2 µM
# Notes: whole 60-bp probe, lowest competitor level
# With: Pho4 competitor, 0.05 µM
# Direction: higher = stronger binding
# Shared flanks, not repeated: … GTCTTGATTCGCTTGACGCTGCTG
Strand,fluorescence intensity [a.u.]
CCAGCAGTGCCTGCCCACGTGAGCTAGGCGACATCC,1310
GAGATTGACCTGTGTCTCGTGCTTTTCTTCCGCCTT,157
ATATCCCGCGCTTTTCCCGTGGTGAATACTGTGTGT,133
AAAAAAGGGGGCAGCAACGTGCTTTACATACAAACC,187
CGTCCTAGTGATTTTCACGTGATCTCCATGAGGAAG,5860
TTCTAGGTTTAACTTCACGTGTTCCCCACCGAGGCG,1100
ACTGCTGTCTATAACGGCGTGACGGGTTTAGCATAA,144
CTTTCCCGATCTTCTCACGTGTTTTTAGCACATTTG,1330
TTTGGCGCAAATTACCATGTGAGCGAGCGGGAATAA,210
TGCATTCTGAAGTTACACGTCACTAACCAGCACTAT,83.5
TGGGCCTGAAAACTACACGTGGTGAGAGCCACAGTA,677
CTTCTGTAAATTTTTCACGTGAGGTGAAGCGCCCCG,895
CTTTCCCGATCTTGCGGGGTGGGTGTAGCACATTTG,72
CATACCCAACCTTGTGAAGTGGGTGAAGATATTTGT,74.9
TTTAAAAGGAGCCATCACGTTCTGCAGCACTTGAAT,185
CTGCCATTGCTGAAGCTCGTGCTTTCGAAGAAAACT,112
TCCACACACCGTTCACACGTGCTTTATTTCTTTTTC,1140
CTTCTGTAAATTTGCTTGGTGGGTGGACGCGCCCCG,92.1
TGATTGCCTCCGACGCTCGTGACGGGTTCCTCCGAA,162
AGGCGAGAAGTTCCACGCGTGTGAATTCCCCGGATG,80.5
GTCCGATGTCCCCATCACGTTCATCACAACATTCCT,227
TGCGCAACAACTTGTTGCGTGGGTGTATGTCTAGAA,70.2
CTACGTACAAGTGTATACGTGCCAGTATTTGGACGC,119
AAAACATCAAAACTACACGTTTGGGTGGTACGGAGG,76.9
CTAACGAAGGTTTGTCCCGTGGGTGACAAGCCAAGT,89.2

# Block 3
# Target: Sal-like protein 4, full length isoform A (SALL4, Homo sapiens, UniProt Q9UJQ4, residues 1-1053)
# Chain of UniProt Q9UJQ4 (whole entry, looked up): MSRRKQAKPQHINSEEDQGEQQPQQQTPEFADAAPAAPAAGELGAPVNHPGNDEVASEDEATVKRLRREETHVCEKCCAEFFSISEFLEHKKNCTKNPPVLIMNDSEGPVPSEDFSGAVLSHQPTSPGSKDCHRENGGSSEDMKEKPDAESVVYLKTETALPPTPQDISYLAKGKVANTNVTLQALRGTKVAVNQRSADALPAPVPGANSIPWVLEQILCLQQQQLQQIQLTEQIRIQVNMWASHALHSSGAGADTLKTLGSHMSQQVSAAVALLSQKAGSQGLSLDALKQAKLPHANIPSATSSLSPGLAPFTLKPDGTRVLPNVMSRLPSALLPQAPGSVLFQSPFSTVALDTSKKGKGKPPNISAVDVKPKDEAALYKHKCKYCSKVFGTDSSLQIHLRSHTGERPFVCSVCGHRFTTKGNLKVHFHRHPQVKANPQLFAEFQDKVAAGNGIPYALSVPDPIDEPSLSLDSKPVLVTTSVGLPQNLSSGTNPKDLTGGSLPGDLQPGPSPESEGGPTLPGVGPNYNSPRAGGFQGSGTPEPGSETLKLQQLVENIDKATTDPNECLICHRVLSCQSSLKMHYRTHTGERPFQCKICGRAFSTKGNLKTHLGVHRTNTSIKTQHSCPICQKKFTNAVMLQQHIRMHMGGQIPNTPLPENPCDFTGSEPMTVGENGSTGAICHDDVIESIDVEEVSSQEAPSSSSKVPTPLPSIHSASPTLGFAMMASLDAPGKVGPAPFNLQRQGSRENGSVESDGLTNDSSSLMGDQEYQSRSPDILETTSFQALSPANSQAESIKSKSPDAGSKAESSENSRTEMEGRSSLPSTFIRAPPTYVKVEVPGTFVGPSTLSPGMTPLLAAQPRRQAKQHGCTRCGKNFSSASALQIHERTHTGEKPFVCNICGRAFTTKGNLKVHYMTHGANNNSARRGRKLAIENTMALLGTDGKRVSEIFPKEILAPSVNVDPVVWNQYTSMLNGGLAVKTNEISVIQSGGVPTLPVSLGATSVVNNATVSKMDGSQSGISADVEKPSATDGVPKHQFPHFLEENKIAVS
# Method: universal PBM
# Molecule type: double-stranded DNA, one strand shown
# Sample: in vitro
# Concentration: 600 nM
# Notes: 8-mer, flanks averaged, mean of replicates
# Direction: higher = stronger binding
Strand,E-score
TGCCGAAA,-0.11
CTTTGGTA,0.00715
CAGACATG,0.155
TCTCCAGA,-0.116
CGTGTGAA,-0.0272
ATGATCCC,0.00518
AACGAGTA,0.168
GCAAGCCC,-0.292
CTTCATCC,0.0136
CCGGCACG,-0.192
CGAACCCG,-0.36
CGGCAGCC,-0.311
GTGTAGTA,0.0727
GGAACGGA,-0.0595
GCGTACCC,-0.214
TTACGTAA,0.202
CTAGCGGA,-0.317
CCCTCACC,-0.314
CAACTTTC,0.162
GCAGGGAC,-0.26
ATAGAAAT,0.355
GAGCAGGC,-0.29
ATAAACAC,0.193

# Block 4
# Target: CCNF, cyclin fold, Cln2 fusion (human)
# Method: yeast growth competition, sequencing
# Sample: yeast
# Notes: strong parent motif
# Baseline: not given
# Direction: higher = stronger binding
# Parent: E2F1 docking peptide (human); PPVKRRLDLETDH
Change,normalised enrichment score
V3G,2.58
P2S,6.65
R5K,2.17
L7A,0.645
K4H,4.8
T11S,6.24
T11F,7.11
P1H,7
R5W,0.614
D12S,6
D12A,7.31
T11W,7.79
P1Q,5.68
K4L,1.4

# A few entries again (block 1):
target,fold induction
"PhoP, residues 12 14 15 18 19 SFCSL (Escherichia coli, UniProt P23836)",15.9
"PhoP, residues 12 14 15 18 19 AYFRS (Escherichia coli, UniProt P23836)",3.16
"PhoP, residues 12 14 15 18 19 HHYTI (Escherichia coli, UniProt P23836)",8.66
